Published values gathered from unrelated publications.
Parts stem from different laboratories: compare values within a part only.

Sample 1
Target: Prothrombin, mature alpha-thrombin (F2, Homo sapiens, UniProt P00734)
Technique: aptamer microarray, sandwich
Molecule type: DNA with 2'F-ANA
Medium: in vitro
Tested at: 200 nM
Setting: whole 15-mer aptamer, many near background
Added: Cy3 exosite-II aptamer, 400 nM
Reading: higher = stronger binding
Oligonucleotide: GGTTGGTGTGGTTGG
Modification	mean fluorescence intensity
2'F-ANA at 1 2 4 8 9 10 15	53.5 a.u.
2'F-ANA at 4 5 6 9 10 11 12 14 15	56.6 a.u.
2'F-ANA at 1 2 3 6 7 10 11 12 13 15	74.8 a.u.
2'F-ANA at 4 5 6 12 13 14	44.7 a.u.
2'F-ANA at 1 4 7 9 10 11 14	89.4 a.u.
2'F-ANA at 3 4 14 15	363 a.u.
2'F-ANA at 2 4 5 6 13 15	50.3 a.u.
2'F-ANA at 1 3 6 8 12 13 14 15	115 a.u.
2'F-ANA at 2 3 5 8	129 a.u.
2'F-ANA at 3 7 9 10 13 15	459 a.u.
2'F-ANA at 1 2 4 5 6 8 9 10 11 15	48.2 a.u.
2'F-ANA at 4 5 8 9 10 14	46.1 a.u.
2'F-ANA at 2 3 6 8 11 13 14	317 a.u.
2'F-ANA at 2 3 4 5 6 7 10 13 15	49.6 a.u.
2'F-ANA at 1 2 4 5 6 8 13 14 15	48.6 a.u.
2'F-ANA at 2 6 7 9 11 13 15	226 a.u.
2'F-ANA at 1 2 4 5 8 9 11 12 14	51.8 a.u.

Sample 2
Target: Interferon regulatory factor 5, full length, phosphomimetic (IRF5, Homo sapiens, UniProt Q13568-2, residues 1-514, K96S/S451D/S453D/S456D/S462D)
Technique: protein-binding microarray
Molecule type: double-stranded DNA, one strand shown
Medium: in vitro
Tested at: 250 nM
Setting: 60-bp whole probe
Added: salmon DNA 0.4 mg/ml
Reference: random background probes
Reading: higher = stronger binding
All sequences stand within: GCCTAGCAC … GTCTTGATTCGCTTGACGCTGCTG
Oligonucleotide	log fluorescence [z-score]
TACGATTTCGGGTATCGAGACGTGCTA	4.46
GACGAACTGAGGATCGAGACGTGCTAG	-0.329
GACGGTATCGGAACTGGGGACGTGCTA	1.59
TTAAGTATCGGGTATCGGTTAGTGCTA	7.81
TTAGGTTTCCTACTGCTATAGTGCTAG	0.382
GACGATTTCGGGTTACGAGACGTGCTA	4.56
TTGTGTTTGGGCATTTTTCTAGTGCTA	-0.354
GACGATTCCAGTTTCGAAACGTGCTAG	6.42
TACTTTCTGAATGCTCCCCCTGTGCTA	4.35
TAGACTCTGTGCTTTCCTCGTGTGCTA	0.0353
GACGGACTGCTTATCCTGCCGTGCTAG	-0.407
GACGGTATCCTTCTCCTGACGTGCTAG	0.0418
GCCGGTTCCCTTTTCCTGACGTGCTAG	0.147
CTAGGTCTCCTTTTCCTTTAGTGCTAG	-0.0126
GACGGACTGGGTCTCGGGTCGTGCTAG	-0.606
GTAGGTTTCCTACTGCTTTAGTGCTAG	0.136
TTGGGACTGGGTTTCGGTTAGTGCTAG	7.3
TTAGGTTTCGACTTTCGGATAGTGCTA	8.92
CCTAATTCTCTTTTCACTTTGTGCTAG	1.3

Sample 3
Target: Histone acetyltransferase KAT6A, winged helix 1, GST fusion (KAT6A, Homo sapiens, UniProt Q92794, residues 1-85)
Technique: protein binding microarray
Molecule type: double-stranded DNA, one strand shown
Medium: in vitro
Tested at: not given
Setting: 8-mer, flanks averaged, mean of 2 arrays, mostly near background
Reference: not given
Reading: higher = stronger binding
Residues (chain): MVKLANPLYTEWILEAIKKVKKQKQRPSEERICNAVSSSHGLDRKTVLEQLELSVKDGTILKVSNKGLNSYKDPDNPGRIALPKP
Oligonucleotide	E-score
CCGACGCC	0.414
CAAATCCA	-0.304
AGCTGCGA	0.0519
ACCTACCG	0.0527
AAATCCGA	0.0778
AGTTCTTC	0.0402
AGGGCTCG	0.109
ACCGAATG	-0.0471
GACTACCA	-0.153
TGAGATAA	-0.0702
ATCACACG	0.0134
AATTTCGC	-0.0305
CTCGTTCA	-0.0614
CGGTAAAA	0.14
AGTGTCTC	-0.233
CCACGCTC	0.0502
AGATTTTG	-0.158
TAACGCAA	0.16
ATCCAACA	-0.165
ACTGATCG	-0.0758
AGAGCCGC	0.314
AGAAGTAG	-0.123
GTCACGAA	-0.0561
CGAACACA	-0.144
CCCTTGTA	-0.246

Sample 4
Target: RNA binding protein fox-1 homolog 2, RRM domain, GST-SBP tag (RBFOX2, Homo sapiens, UniProt O43251-10, residues 100-194)
Technique: RNA Bind-n-Seq
Molecule type: RNA
Medium: in vitro
Tested at: 365 nM
Setting: natural RNA segment, single round, ends assumed
Reference: no-protein control
Reading: higher = stronger binding
All sequences stand within: GGGAGUUCUACAGUCCGACGAUC … UGGAAUUCUCGGGUGCCAA
Target sequence (chain): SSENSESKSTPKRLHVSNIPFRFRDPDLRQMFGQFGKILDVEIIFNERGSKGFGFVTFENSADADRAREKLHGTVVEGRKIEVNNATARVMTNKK
Oligonucleotide	RBNS enrichment (R)
GGAGCACACCUCUCAGACCAGUCAGGAACACUGGGGAGGUGACAGCAGGUCCCCAGGGGCCUGCAGGGAAUCUUUCAGCUGCACGGAUUGGGAUUUCCCUCCAAACCAAA	0.417
UUUUACCUUUGUUCCUUUUGCUCUGAUAGACAAAAUCAGUUUAGGACUAUUAAAGAAUGUUUUGGAAUAAACUGUCUUUUUCCUCAAUGAAUGGGAUGUCUAAUGUAUUU	0.997
CUCUUGGCUCCUGGUCCUCUCUGUGCUCGAUUCUCUAUCCUGUGCCAGUUUCCUCUCCGUCUCACGGAUCCCCCGGCCAUGUUCAGUCCACCCCUCUCUCUCUCUCAACU	0.625
CUGAUUCAGUGCCAAUAGCCACAGUGUGGCUCAAGAUACAGGUAGAGGGGCUACACUAGCCCACCCCAUUUAGAGUGGUCCUGUCUACUCUACAGCAACUCUCUUGGGCU	0.312
CAGUGGCCAUUUAUUAGCAUCAUAUUUAUUUGUAUUUUCUCAACAGAUGUUAAGGUACAACUGUGUUUUUCUCGAUUAUCUAAAAACCAUAGUACUUAAAUUGAACAGUU	0.669
CCAAGUCAAGGCUUAGGGAAGUUCAGCCACCUGCUUAGAUGAUAUAUCAAGGUGGCAGUGGAAGGGGGUGAGCUAAGGACCCAGCAAGGUUUCCUGGAGGCAAAGUUUAU	0.464
CUAAUUAAACAUGCCAAAAGGAAAAAGUAAGAGAAAGAGGGAGCAAGAAGAAAAUGGAAGAAAAAGGGAAAAAAGCUAACCGGAUAACCAAUUUGUUAUAAGUUGGUUUU	1.14
CAUGCGUAAACAUUGCUGAAUAUUGUUUCACACAAAAAUUGAAACACUGUUUCUUAAUUUUAUUGUUGUAUUCAUAUAUGUAGGAUUUGAAAUAUUGUGAUGCCCACCAC	0.343
